Published values pooled from the literature.
Lines come from different studies, so protocols differ. Values joined by “and” are separate records of one study, mostly repeats; a detail may differ. ± marks the error that the study gave.

COc1cccc(OC)c1-c1cc(C(=O)NC2(C(=O)O)C3CC4CC(C3)CC2C4)nn1-c1ccc(C(=O)N(C)CCOCCN(C)C(=O)[C@H](CCCCNC(=O)[C@H](CC(C)C)NC(=O)C2OC2C(=O)O)NC(=O)CN2CCN(CC(=O)[O-])CCN(CC(=O)[O-])CCN(CC(=O)[O-])CC2)cc1C(C)C.[177Lu+3] (mixture of isomers)  tissue uptake (mouse, HT-29 xenograft, kidney; 24 h post injection): 7.4 %ID/g
O=C(O)c1ccc(/C=C2\SC(=S)N(Cc3cccc(C(F)(F)F)c3)C2=O)cc1  hepatic clearance (mouse liver microsomes; 1 µM): < 20.7 mL/min/kg
O=C(CC1CCOCC1)Nc1ccc([C@H]2[C@@H](F)[C@@H](F)C[C@@H](F)[C@H]2F)cc1  hepatic clearance (hepatocyte stability; cryopreserved mouse hepatocytes; 1 µM): 21 mL/min/kg
O=C(NS(=O)(=O)c1cccs1)c1cc2ccccc2n1Cc1ccc(Br)c2ccccc12  body weight (KM mouse, chronic hyperuricaemia model; dose not given, day 1): 27.1 g and 25.4 g and 26.9 g and 24.5 g and 25.1 g
F[C@@H]1[C@H](c2ccc(-c3ccc(N4CCCC4)nc3)cc2)[C@H](F)[C@H](F)C[C@@H]1F  hepatic clearance (liver microsome stability; dog liver microsomes; 1 µM): 25 mL/min/kg
O=C(Nc1cc(-c2ccnc3[nH]ccc23)c(Cl)cn1)[C@H]1CCC[C@@H](NC(=O)C(F)(F)F)C1  hepatic clearance (mouse liver microsomes): 66.4 mL/min/kg
COc1ccc2c(c1)CN(C(=O)CCN1CCC(Cc3ccccc3)CC1)CCS2  fu (dog plasma; 750 ng/mL): 0.072
COC1C=COC2(C)Oc3c(C)c(O)c4c(c3C2=O)C2=NC3(CCN(CC(C)C)CC3)NC2=C(NC(=O)C(C)=CC=CC(C)C(O)C(C)C(O)C(C)C(OC(=O)Nc2cscn2)C1C)C4=O (centres unmarked)  fAUC/MIC ratio (CD-1 mouse female, plasma; oral, 10 mg/kg): 24.8
O=C(NC1CCC(F)(F)CC1)C(c1cncnc1)N(C(=O)C(F)Cl)c1ccc(OC(F)(F)F)cc1 (centres unmarked)  CLint (human liver microsomes; concentration not given, pH 7.4): < 9.6 µL/min/mg
CNC(=O)c1ccc([C@H]2[C@@H](F)[C@@H](F)C[C@@H](F)[C@H]2F)cc1  hepatic clearance (liver microsome stability; mouse liver microsomes; 1 µM): 33 mL/min/kg
CC(C)OC(=O)[C@H](CO)NCc1cc(Cl)c(OCc2cccc(-c3ccccc3)c2Br)cc1OCc1cccnc1  body weight (hPD-L1 MC-38 tumour, humanised hPD-1 C57BL/6 mouse; oral, 10 mg/kg × 21, day 1, baseline): 19.7 ± 1 g
CC(C)C[C@H](NC(=O)[C@H](CO)NC(=O)[C@H](CCC(=O)O)NC(=O)CNC(=O)[C@H](C)NC(=O)OCc1ccccc1)C(=O)N[C@@H](Cc1ccc(O)cc1)C(=O)N[C@@H](CCC(=O)O)C(N)=O  compound remaining (metabolic stability; human, plasma; 1 h): 86.4%
O=C(NC1CCOCC1)c1ccc(C2CCCCC2)cc1  hepatic clearance (liver microsome stability; rat liver microsomes; 1 µM): 53 mL/min/kg
CN(C(=O)C(C)(C)c1cc(C(F)(F)F)cc(C(F)(F)F)c1)c1cnc(N2C[C@H]3COC(O)CN3C[C@H]2CO)cc1-c1ccc(F)cc1CO (some centres unmarked)  pathway contribution to clearance (pooled human liver microsomes; pH 7.4, substrate depletion): 100%
CCC1CNC(CC)CN(C(C(=O)[O-])c2ccc(C(=O)[O-])cc2)C(CC)CN(CC(=O)[O-])C(CC)CN1.[Mn+2] (centres unmarked)  Mn uptake (ICP-MS; BALB/c mice, intestine; intravenous, 0.05 mmol/kg, 30 min; baseline: injected dose): 6.43 ± 5.61%
CC(C)CC(=O)Nc1ccc([C@H]2[C@@H](F)[C@@H](F)C[C@@H](F)[C@H]2F)cc1  hepatic clearance (liver microsome stability; rat liver microsomes; 1 µM): 23 mL/min/kg
CC(C)=CCc1cc(C(=O)/C=C/c2ccc(O)cc2)c(O)cc1O  CLint (monkey liver microsomes; phase I metabolism): 9.68 µL/min/mg

Some of these lines once more:
F[C@@H]1[C@H](c2ccc(-c3ccc(N4CCCC4)nc3)cc2)[C@H](F)[C@H](F)C[C@@H]1F  hepatic clearance (liver microsome stability; dog liver microsomes; 1 µM): 25 mL/min/kg
CCC1CNC(CC)CN(C(C(=O)[O-])c2ccc(C(=O)[O-])cc2)C(CC)CN(CC(=O)[O-])C(CC)CN1.[Mn+2] (centres unmarked)  Mn uptake (ICP-MS; BALB/c mice, intestine; intravenous, 0.05 mmol/kg, 30 min; baseline: injected dose): 6.43 ± 5.61%
CC(C)C[C@H](NC(=O)[C@H](CO)NC(=O)[C@H](CCC(=O)O)NC(=O)CNC(=O)[C@H](C)NC(=O)OCc1ccccc1)C(=O)N[C@@H](Cc1ccc(O)cc1)C(=O)N[C@@H](CCC(=O)O)C(N)=O  compound remaining (metabolic stability; human, plasma; 1 h): 86.4%
